Results of several laboratories.
Numbered parts are unrelated; each lists some results of a single study.

Sample 1 — method: RNA Bind-n-Seq; molecule type: RNA; matrix: in vitro; concentration: 365 nM; relative to: no-protein control; reading: higher = stronger binding
Target: RNA binding protein fox-1 homolog 2, RRM domain, GST-SBP tag (RBFOX2, Homo sapiens, UniProt O43251-10, residues 100-194)
Setting: natural RNA segment, single round, ends assumed
Construct (chain): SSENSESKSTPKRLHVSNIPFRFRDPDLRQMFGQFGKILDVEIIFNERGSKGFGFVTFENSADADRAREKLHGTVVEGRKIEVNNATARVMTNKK
Under “RBNS enrichment (R)”, `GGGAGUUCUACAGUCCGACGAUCGAGCAUCAGGGUGGGGGUCUCCUCCGCAGCAAGGUUGAUGACACAUUUACAGUGCUUGCUCUGAGCAGCUCAGAAGACAGUAGAGAAUGCGAGAGGACCUUCUGACGGUGUGGAAUUCUCGGGUGCCAA` is recorded as 0.815.
For `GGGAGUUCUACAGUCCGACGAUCUCAGUCUUUUCGGCAAGAACUUCAGAGAACUGUGACACUGGUUAUGAUGUGAUUUUGGGGGGUUUCAGGUACCUAAGCAUGAUUUUUAAAAUCACUUCUCUCUUUACAUAUGGAAUUCUCGGGUGCCAA`, “RBNS enrichment (R)” read 24.8.
For `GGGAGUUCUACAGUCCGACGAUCCUCCGUGAAGGUCUUAGUGUAUGUGUUUUGCUUGUUAACUGUCAUCGUGGUUGGGAUUAGACCUGUUUGGAAACAGCUGCUGUCAGUGAUGCUCCGGUGUGCCAAGCCCCUGGAAUUCUCGGGUGCCAA`, “RBNS enrichment (R)” read 5.53.
`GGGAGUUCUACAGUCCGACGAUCAGUCCUCCACCCUCCCACUGCCGCCACCCCUACUGCUGCAGGCUCACAGACCUCAGUCAUGUGAUAAGCUAUGUUAUGGUUCUUUAUCUGUUUAAAAUAUGGAAUCUUCAUGGAAUUCUCGGGUGCCAA`: “RBNS enrichment (R)” 0.188.
Under “RBNS enrichment (R)”, `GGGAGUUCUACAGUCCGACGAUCUAUUUUCCUUACUGAAAUCAAGUGUUUGACUUUUUACAAAAGUGAAACCUUACCCGAGAGGAGUUUCCUAUCUCUGGAUGGCAGUUGAUUCACUGUAAGUGUUCUGUGGCUGGAAUUCUCGGGUGCCAA` is recorded as 0.285.
For `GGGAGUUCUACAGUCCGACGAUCCCAGCAGUCAAGUGCAUUCUCCAGUCCUUGCAAGAAGGAUCAGCCCUUUCUGUGCCAGCCUCGAUCGCCUUGUGCUUUGGUCUCUUUUUCUCCCCCCCGCCUGGAUCCUGUGGAAUUCUCGGGUGCCAA`, “RBNS enrichment (R)” read 0.469.
Under “RBNS enrichment (R)”, `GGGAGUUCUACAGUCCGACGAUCUGAGUCCCGAGACCAGUUGGGUACCUCUCUAUGCGAACCAGAGACAUUUCUGGAUCCAGGCCAGGUGAAGAUUAGGGCCAGGAAGCCUGAGCCCCCGGGGCCUCAAGGUAUGGAAUUCUCGGGUGCCAA` is recorded as 0.323.
`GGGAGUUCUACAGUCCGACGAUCAAGUGCUUCUAAGUAUUUCCUUAAGGUCUGUGAAGAGUAUUUGCCCUGCGUCUUCAUUUCCGUGUGUGUGCAACUGCUCCGCUCCAAGAACUGCACCGCUGUCUUGUGAGUGGAAUUCUCGGGUGCCAA`: “RBNS enrichment (R)” 0.407.

Sample 2 — method: protein-binding microarray; molecule type: double-stranded DNA, one strand shown; matrix: in vitro; concentration: 250 nM; setting: 60-bp whole probe; together with: salmon DNA 0.4 mg/ml; relative to: random background probes; reading: higher = stronger binding; shared flanks, not repeated: GCCTAGCAC … GTCTTGATTCGCTTGACGCTGCTG
Target: Interferon regulatory factor 5, full length, phosphomimetic (IRF5, Homo sapiens, UniProt Q13568-2, residues 1-514, K96S/S451D/S453D/S456D/S462D)
The log fluorescence of `GACGGACTGGGTTTCGCGACGTGCTAG` is reported as -0.24 z-score.
With `TTAGGTTTCGACTTTCGGTTAGTGCTA` the log fluorescence was 10.3 z-score.
With `TCATTTCTCTCTGTGACACTGTGCTAG` the log fluorescence was 1.69 z-score.
With `GATGGTCTCGGTATCGGGACGTGCTAG` the log fluorescence was 1.39 z-score.
`GACGGACTGGACACTGGGTACGTGCTA` gave a log fluorescence of -0.668 z-score.
`GACTGACTGGACTTTCGGGACGTGCTA` gave a log fluorescence of 4.37 z-score.
`TAAGGTATCCTACTGCTTTAGTGCTAG` has a log fluorescence of -0.275 z-score.
With `GACGAACTGAGTATCGAGACGTGCTAG` the log fluorescence was 1.97 z-score.
`GAACATACTAGTTTCCATTTGTGCTAG` has a log fluorescence of 1.57 z-score.
With `TCACTTTTGCTTGTTCTTACTGTGCTA` the log fluorescence was 2.52 z-score.
For `TTAGGTATGGGTATCGGTTAGTGCTAG`, the log fluorescence was 3.61 z-score.
The log fluorescence of `CTAGATTTCGGGTATCGATTAGTGCTA` is reported as 7.38 z-score.
The log fluorescence of `TCAGATTTATCAAATGTGACTGTGCTA` is reported as 0.386 z-score.
`TTAGGTTTCGGTTTCGGTCAGTGCTAG` gave a log fluorescence of 11.9 z-score.
With `GCCGGACTGGGGACTGGGGACGTGCTA` the log fluorescence was -0.652 z-score.

Sample 3 — method: RNA Bind-n-Seq; molecule type: RNA; matrix: in vitro; concentration: 200 nM; setting: whole 134-nt RNA, ends assumed; together with: 150 mM LiCl; relative to: input library; reading: higher = stronger binding; each molecule: 7-deaza-guanosine replaces G
Target: Fragile X messenger ribonucleoprotein 1, C-terminal low-complexity region (Fmr1, Mus musculus, UniProt P35922)
The log2 enrichment of `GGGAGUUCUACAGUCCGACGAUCUGGGAGGUGGAUUUUGUAUAUUUUUUUAGCUCAUUUCCAGGGGUGGGAAUUUUUUUUUAAUAUGUGUCAUGAAUAAAGUUGUUUUUGAAAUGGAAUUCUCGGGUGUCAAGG` is reported as 0.376.
For `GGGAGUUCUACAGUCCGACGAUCCUCAAGUCCUGUGCUACACAUCGUAUGUACCGAAUCGGUUGGUUGGGGUUGGGGAAAGUAUUAUGUUACGCCGUUCGGAUCUGCACUUCCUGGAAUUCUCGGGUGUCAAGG`, the log2 enrichment was -1.32.
The log2 enrichment of `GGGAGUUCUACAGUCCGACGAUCGCAGGAAGUAAAAACAAAUGGAAAUGCUUCGGAUAGUGGCAGGGGUGGGGGUUGCUAAGGAAAGGGUGAAAUGGGAGUGGGUAAAGAGUUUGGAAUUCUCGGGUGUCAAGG` is reported as 1.63.
The log2 enrichment of `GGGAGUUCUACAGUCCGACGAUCUUAAGAAUAUUUAGAUAUUUGUAAAAGAAUUUGAAUGAUUUAUUUAAUAUAACGUUUAUUUUAUUAGCUCUAUUCCAAUUGAUUACAACCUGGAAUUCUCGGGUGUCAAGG` is reported as -3.72.
`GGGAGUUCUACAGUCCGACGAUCCUGUGCUACACAUCGUAUGUACCGAAUCGGGUUUUUUUGGGGUUUUUUUGGUUUUUUUGGGAAAGUAUUAUGUUACGCCGUUCGGAUCUGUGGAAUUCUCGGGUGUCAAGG` has a log2 enrichment of 0.65.
For `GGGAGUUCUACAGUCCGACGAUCCACAGACAACACGCACCCACACAGACACAGAGGGAACGGGUUGGGAUGGGGACAGGGUGCACAGCAGGGCGGGGUAGGACCCCAGCCCCUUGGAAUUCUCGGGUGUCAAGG`, the log2 enrichment was -1.71.

Sample 4 — method: universal PBM; molecule type: double-stranded DNA, one strand shown; matrix: in vitro; concentration: not given; reading: higher = stronger binding
Target: Sal-like protein 4, full length isoform B (SALL4, Homo sapiens, UniProt Q9UJQ4-2, residues 1-616)
Setting: 8-mer, flanks averaged, mean of replicates
The E-score of `GACAGGCA` is reported as -0.13.
For `ACGGGCTA`, the E-score was -0.139.
`GCCTGATA` gave an E-score of -0.0825.
With `TACGCACA` the E-score was 0.0319.
For `TAGAAGGA`, the E-score was -0.0726.
`AGTTAATG` gave an E-score of 0.326.
The E-score of `AAGGACTA` is reported as 0.043.
`CGGCAGAC` has an E-score of -0.333.
The E-score of `ATAGAGAG` is reported as 0.0274.
With `GAGCCGCA` the E-score was -0.262.
`CCGCCTGA` gave an E-score of -0.385.
`AGCGCGCG` has an E-score of -0.266.
The E-score of `GGAACAAA` is reported as 0.164.

Excerpt of the above (sample 3):
The log2 enrichment of `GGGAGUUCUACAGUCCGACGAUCUGGGAGGUGGAUUUUGUAUAUUUUUUUAGCUCAUUUCCAGGGGUGGGAAUUUUUUUUUAAUAUGUGUCAUGAAUAAAGUUGUUUUUGAAAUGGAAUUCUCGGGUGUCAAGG` is reported as 0.376.
For `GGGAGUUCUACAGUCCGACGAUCCUCAAGUCCUGUGCUACACAUCGUAUGUACCGAAUCGGUUGGUUGGGGUUGGGGAAAGUAUUAUGUUACGCCGUUCGGAUCUGCACUUCCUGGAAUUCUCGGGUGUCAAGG`, the log2 enrichment was -1.32.
The log2 enrichment of `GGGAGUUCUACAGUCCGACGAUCGCAGGAAGUAAAAACAAAUGGAAAUGCUUCGGAUAGUGGCAGGGGUGGGGGUUGCUAAGGAAAGGGUGAAAUGGGAGUGGGUAAAGAGUUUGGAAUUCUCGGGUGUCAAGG` is reported as 1.63.
The log2 enrichment of `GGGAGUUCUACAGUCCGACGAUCUUAAGAAUAUUUAGAUAUUUGUAAAAGAAUUUGAAUGAUUUAUUUAAUAUAACGUUUAUUUUAUUAGCUCUAUUCCAAUUGAUUACAACCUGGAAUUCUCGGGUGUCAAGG` is reported as -3.72.
`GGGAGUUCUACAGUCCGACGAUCCUGUGCUACACAUCGUAUGUACCGAAUCGGGUUUUUUUGGGGUUUUUUUGGUUUUUUUGGGAAAGUAUUAUGUUACGCCGUUCGGAUCUGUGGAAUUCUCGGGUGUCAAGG` has a log2 enrichment of 0.65.
For `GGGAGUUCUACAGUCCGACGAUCCACAGACAACACGCACCCACACAGACACAGAGGGAACGGGUUGGGAUGGGGACAGGGUGCACAGCAGGGCGGGGUAGGACCCCAGCCCCUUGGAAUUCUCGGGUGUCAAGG`, the log2 enrichment was -1.71.
